Published values of several laboratories.
A part holds a random share of what one study measured. Substitutions count along the parent as printed.

Block 1
Target: Histone acetyltransferase KAT6A, both winged helices, GST fusion (KAT6A, Homo sapiens, UniProt Q92794, residues 1-181)
Method: protein binding microarray
Form: double-stranded DNA, one strand shown
Medium: in vitro
Tested at: not given
Setting: 8-mer, flanks averaged, mean of 2 arrays, mostly near background
Baseline: not given
Direction: higher = stronger binding
Construct (chain): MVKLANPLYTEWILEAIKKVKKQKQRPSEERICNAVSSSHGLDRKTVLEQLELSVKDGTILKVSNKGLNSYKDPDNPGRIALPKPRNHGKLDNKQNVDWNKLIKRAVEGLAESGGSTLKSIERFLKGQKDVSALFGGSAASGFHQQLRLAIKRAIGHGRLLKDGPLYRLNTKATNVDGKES
| Oligonucleotide | E-score |
| --- | --- |
| CAGACCAG | -0.111 |
| ATCCGAAG | -0.0981 |
| CGGGGTCA | 0.229 |
| CATCAGTC | -0.0789 |
| CTGGTGAA | -0.0224 |
| ATAACCTA | -0.115 |
| GAGGTGAA | -0.0854 |
| AACCATTA | -0.0414 |
| AATGTGCA | -0.0866 |
| GCGCTGCC | 0.257 |
| CTCATCGA | -0.127 |
| AACGTTAA | 0.114 |
| GCTTTCCA | -0.0296 |
| GAGAGTCC | -0.0249 |
| CGATCCGC | 0.181 |
| TCTCTAAA | -0.108 |
| ATACCTGA | -0.0345 |
| ATCCGCTA | 0.267 |
| TTGGCCAA | -0.14 |
| AGATCCAG | -0.12 |
| GGTCAGTA | 0.0503 |

Block 2
Target: UBE2J2 UBC core domain (UniProt Q8N2K1)
Method: yeast two-hybrid
Medium: yeast
Setting: mostly zero background
Baseline: not given
Direction: higher = stronger interaction
B1: RC3H2 RING domain (UniProt Q9HBD1); chain QAAQWTEFLSCPICYNEFDENVHKPISLGCSHTVCKTCLNKLHRKACPFDQTAINTDIDVL
B2: TRIM72 RING domain (UniProt Q6ZMU5); chain APGLLHQELSCPLCLQLFDAPVTAECGHSFCRACLGRVAGEPAADGTVLCPCCQAPTRPQALST
B3: UHRF2 RING domain (UniProt Q96PU4); chain CGGDPEKKCHSCSCRVCGGKHEPNMQLLCDECNVAYHIYCLNPPLDKVPEEEYWYCPSCKTDSSEVVKAGER
B4: TRIM69 RING domain (UniProt Q86WT6); chain VIQDITMELHCPLCNDWFRDPLMLSCGHNFCEACIQDFWRLQAKETFCPECKMLCQYNNCTF
Target sequence (chain): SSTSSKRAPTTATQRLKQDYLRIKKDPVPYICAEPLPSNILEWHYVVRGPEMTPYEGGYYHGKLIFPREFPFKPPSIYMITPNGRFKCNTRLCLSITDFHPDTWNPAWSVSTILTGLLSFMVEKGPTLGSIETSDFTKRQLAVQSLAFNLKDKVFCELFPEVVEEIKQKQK
| Molecule | lacZ reporter activity |
| --- | --- |
| RLTMMWEEVTCPICLDPFVEPVSIECGHSFCQECISQVGKGGGSVCPVCRQRFLLKNLRP (TRIM21 RING domain (UniProt P19474)) | 0 |
| FASPPDSNFVCSVCHGVLKRPARLPCSHIFCKKCILRWLARQKTCPCCRKEVKRKKVVH (RNF151 RING domain (UniProt Q2KHN1)) | 0 |
| B1 (RC3H2 RING domain) | 0 |
| QHHELTSLFECPVCFDYVLPPILQCQAGHLVCNQCRQKLSCCPTCRGALTPSIRNL (SIAH2 RING domain (UniProt O43255)) | 0 |
| B2 (TRIM72 RING domain) | 0 |
| B3 (UHRF2 RING domain) | 0 |
| YWAMDSTFELCKICAESNKDVKIEPCGHLLCSCCLAAWQHSDSQTCPFCRCEIKGWEAVS (CBLC RING domain (UniProt Q9ULV8)) | 0 |
| QLRRLQEERTCKVCMDKEVSIVFIPCGHLVVCKDCAPSLRKCPICRSTIKGTVRTF (BIRC3 RING domain (UniProt Q13489)) | 12300 |
| PEELQAMDNVCIICREEMVTGAKRLPCNHIFHTSCLRSWFQRQQTCPTCRMDVLRASLPA (SYVN1 RING domain (UniProt Q86TM6)) | 2640 |
| B4 (TRIM69 RING domain) | 0 |
| EDEVSDNSAECVVCLSDVRDTLILPCRHLCLCNTCADTLRYQANNCPICRLPFRALLQIR (RNF157 RING domain (UniProt Q96PX1)) | 0 |

Block 3
Target: Interferon regulatory factor 7, full length, phosphomimetic (IRF7, Homo sapiens, UniProt Q92985, residues 1-503, S471D/S472D/S475D/S476D/S477D/S483D/S484D/S487D)
Method: protein-binding microarray
Form: double-stranded DNA, one strand shown
Medium: in vitro
Tested at: 2200 nM top
Setting: 60-bp whole probe
Together with: salmon DNA 0.4 mg/ml
Baseline: random background probes
Direction: higher = stronger binding
All sequences stand within: GCCTAGCAC … GTCTTGATTCGCTTGACGCTGCTG
Residues (chain): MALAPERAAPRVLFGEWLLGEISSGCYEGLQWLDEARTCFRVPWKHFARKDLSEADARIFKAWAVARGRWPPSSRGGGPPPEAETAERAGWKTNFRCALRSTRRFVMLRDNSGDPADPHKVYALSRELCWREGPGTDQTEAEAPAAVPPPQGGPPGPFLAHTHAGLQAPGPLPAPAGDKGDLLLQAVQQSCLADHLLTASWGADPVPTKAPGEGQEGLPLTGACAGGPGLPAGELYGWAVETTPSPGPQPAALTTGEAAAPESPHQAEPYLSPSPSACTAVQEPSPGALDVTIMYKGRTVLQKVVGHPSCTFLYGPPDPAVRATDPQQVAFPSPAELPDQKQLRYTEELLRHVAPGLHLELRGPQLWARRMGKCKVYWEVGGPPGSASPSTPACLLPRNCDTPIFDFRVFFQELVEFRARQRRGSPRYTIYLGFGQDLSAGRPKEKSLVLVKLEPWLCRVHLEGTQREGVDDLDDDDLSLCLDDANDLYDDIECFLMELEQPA
| Oligonucleotide | fitted relative affinity [z-score] |
| --- | --- |
| TTAGGTCTCGGTCTCGGTTTGTGCTAG | 1.77 |
| TCATTTTCATGCTCTTATACTGTGCTA | 3.56 |
| TAAGAAAAGCCACCAGGACCGTGCTAG | -1.32 |
| TCACTTCTCTAACCTCTCACTGTGCTA | 2.19 |
| GACGATAACAGTATCGAGACGTGCTAG | 0.101 |
| GCTAGTGTGCCATATTTATCTGTGCTA | -0.183 |
| TCATATATCTTATCCTAACTGTGCTAG | 1.55 |
| GACGATATCGGGACTGAAGACGTGCTA | -0.209 |
| TTAGGTTTCCTTATCCTTTGGTGCTAG | 2 |
| TTAGGAATGCTTATCCTTTAGTGCTAG | 0.00706 |
| TTAGATCCCAGACTGGATTAGTGCTAG | 0.0825 |
| TTAGGTTTCGACTATCTGTTAGTGCTA | 2.77 |
| TTAGGTTTTGGTATCGGTTAGTGCTAG | 1.65 |
| TCAATTTTCACGGTGGGACTGTGCTAG | 0.791 |
| GACGATTTCGGGGATCGAGACGTGCTA | 1.17 |
| TTAGATCTCGGACTGGGTTAGTGCTAG | 0.000582 |
| TCATTTTTGCTTACGATACTGTGCTAG | 2.33 |
| TTAGATATCAGACTGCATTAGTGCTAG | -0.0896 |
| GACGGACTGGGTCTCGTGACGTGCTAG | -0.722 |

Block 4
Target: ABI1, truncated, D143A, DHFR fusion (Arabidopsis thaliana)
Method: DHFR PCA, deep sequencing
Medium: yeast
Setting: methotrexate growth selection, single substitutions
Together with: (+)-ABA 0.11 µM
Baseline: wild-type fitted maximum
Direction: higher = stronger binding
Starting sequence: PYL1, truncated, DHFR fusion (Arabidopsis thaliana); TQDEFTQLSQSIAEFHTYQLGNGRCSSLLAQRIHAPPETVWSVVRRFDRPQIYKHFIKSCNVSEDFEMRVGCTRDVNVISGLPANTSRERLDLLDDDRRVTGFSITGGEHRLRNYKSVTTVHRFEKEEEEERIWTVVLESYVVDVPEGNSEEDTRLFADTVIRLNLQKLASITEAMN; partner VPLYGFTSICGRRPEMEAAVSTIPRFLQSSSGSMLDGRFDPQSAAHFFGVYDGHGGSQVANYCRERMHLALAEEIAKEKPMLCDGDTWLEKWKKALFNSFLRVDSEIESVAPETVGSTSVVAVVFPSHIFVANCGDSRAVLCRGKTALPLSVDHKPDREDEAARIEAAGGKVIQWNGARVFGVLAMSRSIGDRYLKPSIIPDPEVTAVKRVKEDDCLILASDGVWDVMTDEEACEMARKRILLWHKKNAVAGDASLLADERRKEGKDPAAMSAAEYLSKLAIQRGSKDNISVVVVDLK
| Substitution | relative binding score [%] |
| --- | --- |
| D144K | -6.64 |
| E109D | 87.9 |
| M176L | 23.3 |
| S87E | -3.54 |
| S104W | -12.2 |
| F124M | 60.6 |
| E151M | 34.1 |
| T106F | 14.2 |
| D3N | 24.4 |
| T86F | 32.2 |
| I52P | 2.08 |
| S104N | 4.53 |
| I79S | 21.1 |
| T135V | -4.72 |
| Q31S | 2.72 |
| G81F | -5.26 |
| S87K | -6.62 |
| R113L | 16.4 |
| E131Y | 15 |
| F5P | 7.27 |
| V118Q | -1.11 |
| E89V | -0.222 |
| P146C | 14.7 |
